Experimental data gathered from unrelated publications.
Compare with care: the assays were run in different laboratories. ± marks the error that the study gave.

`CCCOC(=O)Cc1c(C)n(C(=O)c2ccc(Cl)cc2)c2ccc(OC)cc12`: “latency of nociceptive response” 17.4 ± 0.86 s (hot plate test; BALB/c mice; 100 mg/kg, 30 min).
`COC(=O)C(Cc1c[nH]cn1)NC(=O)C1(C)C(O)CCC2(C)C1CCC1(C)C2CC=C2C3C(C)C(C)CCC3(C)CCC21C` (stereo not drawn) — result for “clinical activity score”: 2.11 ± 0.5 (rat TNBS-induced colitis; oral, dose not given, day 8; direction not given).
For `CC[C@H]1[C@@H](O)[C@@H]2[C@H](CC[C@]3(C)[C@@H]([C@H](C)CCOS(=O)(=O)[O-])CC[C@@H]23)[C@@]2(C)CC[C@@H](O)C[C@@H]12.[Na+]`, the fractional area was 12.5 ± 1.5% (immunohistochemistry, refers to: lipid; ob/ob NASH mouse model, liver; 10 mg/kg, 16 weeks).
For `CC/C=C\C/C=C\C/C=C\C/C=C\C/C=C\CCCCOC(CC)C(=O)O` (stereo not drawn), “fibrosis area change” read -26% (Sirius red; APOE*3Leiden.CETP mice, high-fat/cholesterol diet; dose not given, 20 weeks; baseline: control).
`CCOc1ccc(C[C@@H]2NC(=O)[C@@H](N)CSSC[C@@H](C(=O)N3CCC[C@H]3C(=O)N[C@@H](CC(C)C)C(=O)NCC(N)=O)NC(=O)[C@H](CC(N)=O)NC(=O)[C@H](CCC(N)=O)NC(=O)[C@H]([C@@H](C)CC)NC2=O)cc1` gave a pA2 of 7.22 (antagonist; Bufo marinus urinary bladder; together with: [2-O-methyltyrosine]-oxytocin).
`CC(=O)[O-].O.O.O.O.[Mn+2].[O-]c1ccc(Br)cc1C=NCCN1CCOCC1` gave an inhibition of 52.2% (hydroxyl radical scavenging; 240 µM).
With `COc1ccc(-c2oc3ccccc3c(=O)c2OCc2ccccc2)cc1` the blood glucose was 195 ± 4.97 mg/dL (diabetic rat; 5 mg/kg, day 14, p-nitrophenyl β-glucoside induced).
`CN(C)C(=O)c1ccnc(N2Cc3cn(Cc4ccc(F)cc4F)nc3C2)n1`: “effect size d” -2.16 (refers to: Iba1+ cell number; cuprizone-fed mice, corpus callosum; dose not given, unit not given; baseline: vehicle).
With `O=c1c(OCc2ccccc2)c(-c2ccc([N+](=O)[O-])cc2)oc2ccccc12` the blood glucose was 243 ± 4.79 mg/dL (diabetic rat; 5 mg/kg, day 14, p-nitrophenyl β-glucoside induced).
`Cc1nc(C)c(C=[N+]([O-])C(C)(C)C)nc1C` has a fluorescence intensity of 216 ± 8.27% (immunofluorescence, refers to: 3-NT; MPTP mouse model, substantia nigra; 30 mg/kg; baseline: sham).
Under “log2 fold change”, `C=C(c1ncc(C(=O)O)cn1)c1cc2c(cc1C)C(C)(C)CCC2(C)C` is recorded as -0.38 (RNA sequencing, refers to: Nmb; rat, brain; dose not given, 24 h; baseline: vehicle).
For `COc1ccc(C2CC(c3ccc(C)cc3)=Nc3ccccc3S2)cc1` (stereo not drawn), the blood glucose was 101 ± 4.11 mg/dL (oral glucose tolerance test; fasted normal rat, blood; oral, 20 mg/kg, 0 min, together with: oral glucose 3 g/kg).
For `COc1cc(CN2CCN(c3ccccc3[N+](=O)[O-])CC2)c2cc3[n+](cc2c1O)CCc1cc2c(cc1-3)OCO2`, the IC50 was 8.18 µg/mL (ABTS scavenging, absorbance; 10 min).
Under “hot plate latency”, `COc1c2c(cc3oc(C)cc(=O)c13)O[C@H](C(C)(C)O[C@@H]1O[C@H](CO)[C@@H](O)[C@H](O)[C@H]1O)C2` is recorded as 9.27 ± 1.46 s (analgesic effect; Kunming mouse, female; oral, 1 mg/kg, 0 h, 55 °C, before dosing, 30 s cut-off).
`CN(C)c1ccc(-c2oc3ccccc3c(=O)c2OCc2ccccc2)cc1` has a blood glucose of 210 ± 4.56 mg/dL (diabetic rat; 7.5 mg/kg, day 14, p-nitrophenyl β-glucoside induced).
`COc1ccc2c(c1)c(CC(=O)OCOC(C)=O)c(C)n2C(=O)c1ccc(Cl)cc1`: “latency of nociceptive response” 16.8 ± 1.05 s (hot plate test; BALB/c mice; 100 mg/kg, 120 min).
`COc1cc2c(cc1OC)-c1cc3ccc(OC)c(OC)c3c[n+]1CC2` gave a catalase activity of 28.9 ± 1.44 U/mg protein (rat, STZ-induced diabetic, liver; oral, 12 mg/kg, day 28).
`CCc1nnc(NS(=O)(=O)c2ccc(NC(=S)NC(=O)/C=C/c3ccc(F)cc3)cc2)s1` — result for microvascular area: “decreased” (refers to: CD31; NXS2 allograft, A/J mice, tumour; intraperitoneal, 20 mg/kg daily, 3 weeks; baseline: vehicle).
`CCOC(=O)C1NC(c2ccc[n+](C)c2)C23c4c5c6c7c8c9c(c%10c%11c2c2c4c4c%12c5c5c6c6c8c8c%13c9c9c%10c%10c%11c%11c2c2c4c4c%12c%12c5c5c6c8c6c8c%13c9c9c%10c%10c%11c2c2c4c4c%12c5c6c5c8c9c%10c2c45)C713` (stereo not drawn): “ascites tumour weight” “decreased” (SCID mouse, BCBL1 PEL xenograft; intraperitoneal, 20 mg/kg, day 21; baseline: DMSO).
For `COc1ccc(C2CC(c3ccc(C)cc3)=Nc3ccccc3S2)cc1OC` (stereo not drawn), the triglycerides was 140 mg/dL (Wistar rat, STZ-induced diabetes, serum; 10 mg/kg, 28 days).
`CSCC[C@@H]1NC(=O)[C@H](C)NC(=O)[C@H]([C@@H](C)O)NC(=O)CNC(=O)[C@H](CC(C)C)NC(=O)[C@H](CCC(N)=O)NC(=O)[C@H](CCCNC(=N)N)NC(=O)[C@@H]2CSSC[C@@H]3NC(=O)[C@@H]4CCCN4C(=O)[C@H](C(C)C)NC(=O)[C@H](CCC(N)=O)NC(=O)[C@H](CCC(N)=O)NC(=O)CNC(=O)[C@H](CC(C)C)NC(=O)[C@@H]4CSSC[C@H](NC(=O)[C@H]([C@@H](C)O)NC(=O)[C@H](C)NC(=O)[C@H](CSSC[C@@H](C(=O)N[C@@H](CO)C(=O)N[C@@H](CCC(N)=O)C(=O)N[C@H](C(N)=O)[C@@H](C)O)NC(=O)[C@@H]5CCCN5C(=O)[C@H](CC(N)=O)NC1=O)NC(=O)[C@@H]1CCCN1C(=O)[C@H](CC(=O)O)NC(=O)[C@H](CSSC[C@H](NC(=O)[C@H](CCC(N)=O)NC(=O)[C@H](CCC(N)=O)NC(=O)[C@H](CO)NC(=O)[C@@H](N)CO)C(=O)N[C@@H](C(C)C)C(=O)N[C@@H](CCCNC(=N)N)C(=O)N[C@@H](CC(C)C)C(=O)N[C@@H](Cc1c[nH]cn1)C(=O)N[C@@H](CCC(=O)O)C(=O)N[C@@H](CO)C(=O)N4)NC3=O)C(=O)N[C@@H](Cc1ccc(O)cc1)C(=O)N[C@H]1CSSC[C@H](NC(=O)[C@H](Cc3ccccc3)NC(=O)[C@H](C)NC(=O)[C@H](CC(N)=O)NC(=O)[C@H](Cc3ccccc3)NC(=O)[C@H](Cc3ccccc3)NC(=O)[C@H](CCCNC(=N)N)NC1=O)C(=O)N[C@@H](Cc1ccc(O)cc1)C(=O)N2` has a food intake of 37.9 ± 4.4 % above saline (Long-Evans rat, male; intracerebroventricular, 1.0 nmol in 1.0 µL, 24 h, non-cumulative; baseline: saline).
`Cc1cc(O)c(C=O)c2c1C(=O)Oc1c(CO)c(O)c3c(c1O2)C(O)OC3=O` (stereo not drawn) has a male fertility of 85.4% (mating test; rat male, streptozotocin diabetic; 10 mg/kg).
With `Cc1ccc(-c2nc3cc(C)c(C)cc3[nH]2)o1` the IC50 was 1.55 µM (ABTS scavenging, absorbance).
With `O=C1NC(=O)C(C2CCOc3cc(Oc4ccc(C(F)(F)F)cc4Cl)ccc32)S1` (stereo not drawn) the plasma GIP was 108 pmol/L (mouse, fasted, plasma; oral, 30 mg/kg, 30 min, median).
For `CCN(CC)CCSc1nnc(C23CC4CC(CC(C4)C2)C3)n1C`, “inhibition in vivo” read 2.06% (paw oedema; rat; intraperitoneal, 40 mg/kg).
`O=c1c(OCc2ccccc2)c(-c2ccc(Cl)cc2)oc2ccccc12` has a blood glucose of 340 ± 4.25 mg/dL (diabetic rat; 7.5 mg/kg, day 7, p-nitrophenyl β-glucoside induced).
`Cc1ccc(=O)n(-c2ccc(O)cc2)c1`: GPX activity “increased” (BALB/c mouse, CCl4 liver injury, liver; oral, 1 mmol/kg daily, 4 weeks).
`CC[C@@H](C)N([11CH3])C(=O)c1nc(-c2ccccc2)c2ccccc2n1` — result for “TSPO specific binding”: 78% (PET from VT/fP; rhesus monkey, cerebellum; dose not given).
For `CN(C)/C=C1/C(=O)c2sccc2N(C)S1(=O)=O`, “second-order rate constant” read 2.6 M⁻¹ s⁻¹ (100 µM, pH 7.4, 37 °C, 10% acetonitrile, together with: DTNB).
For `CSCC[C@@H]1NC(=O)[C@H](C)NC(=O)[C@H]([C@@H](C)O)NC(=O)CNC(=O)[C@H](CC(C)C)NC(=O)[C@H](CCC(N)=O)NC(=O)[C@H](CCCNC(=N)N)NC(=O)[C@@H]2CSSC[C@@H]3NC(=O)[C@@H]4CCCN4C(=O)[C@H](C(C)C)NC(=O)[C@H](CCC(N)=O)NC(=O)[C@H](CCC(N)=O)NC(=O)CNC(=O)[C@H](CC(C)C)NC(=O)[C@@H]4CSSC[C@H](NC(=O)[C@H]([C@@H](C)O)NC(=O)[C@H](C)NC(=O)[C@H](CSSC[C@@H](C(=O)N[C@@H](CO)C(=O)N[C@@H](CCC(N)=O)C(=O)N[C@H](C(N)=O)[C@@H](C)O)NC(=O)[C@@H]5CCCN5C(=O)[C@H](CC(N)=O)NC1=O)NC(=O)[C@@H]1CCCN1C(=O)[C@H](CC(=O)O)NC(=O)[C@H](CSSC[C@H](NC(=O)[C@H](CCCNC(=N)N)NC(=O)[C@H](CCCNC(=N)N)NC(=O)[C@H](CO)NC(=O)[C@@H](N)CO)C(=O)N[C@@H](C(C)C)C(=O)N[C@@H](CCCNC(=N)N)C(=O)N[C@@H](CC(C)C)C(=O)N[C@@H](Cc1c[nH]cn1)C(=O)N[C@@H](CCC(=O)O)C(=O)N[C@@H](CO)C(=O)N4)NC3=O)C(=O)N[C@@H](Cc1ccc(O)cc1)C(=O)N[C@H]1CSSC[C@H](NC(=O)[C@H](Cc3ccccc3)NC(=O)[C@H](C)NC(=O)[C@H](CC(N)=O)NC(=O)[C@H](Cc3ccccc3)NC(=O)[C@H](Cc3ccccc3)NC(=O)[C@H](CCCNC(=N)N)NC1=O)C(=O)N[C@@H](Cc1ccc(O)cc1)C(=O)N2`, the food intake was 39.8 ± 4.6 % above saline (Long-Evans rat, male; intracerebroventricular, 1.0 nmol, day 3, non-cumulative; baseline: saline).
With `O=c1c(OCc2ccccc2)c(-c2cccc([N+](=O)[O-])c2)oc2ccccc12` the blood glucose was 153 ± 4.73 mg/dL (diabetic rat; 5 mg/kg, day 28, p-nitrophenyl β-glucoside induced).
Under STAT3 phosphorylation, `Cc1cnc(Nc2cc(C)c(C)c(C)c2)nc1Nc1ccc2oc(=O)[nH]c2c1` is recorded as “inhibited” (refers to: phospho-STAT3; rat, OVA asthma model, whole lung homogenate; intratracheal, dose not given, 2 h after OVA challenge; baseline: OVA vehicle).
For `Cc1cccc(O[C@H]2CCC[C@@H](C(C)CNCc3ccncc3)C2)c1` (relative stereo), “plasma IFN-γ level” read “decreased” (APP/PS1 mouse; dose not given, chronic treatment).
The blood glucose of `Cc1ccc(-c2oc3ccccc3c(=O)c2OCc2ccccc2)cc1` is reported as 173 ± 4.8 mg/dL (diabetic rat; 5 mg/kg, day 21, p-nitrophenyl β-glucoside induced).
For `O=C1/C(=C/c2ccc(O)c(O)c2)Oc2cc(O)c3c(oc4cc(O)c(O)cc43)c21`, the EC50 was over 20000 µM (DPPH scavenging, absorbance).
Under “second-order rate constant”, `O=C(NCC1OC2CCC=CCCC2O1)c1ccc([18F])nc1` (stereo not drawn) is recorded as 10600 M⁻¹ s⁻¹ (MeOH/water 50:50; 37 °C, together with: methyltetrazine-NHS 0.05 mM).

Excerpt of the above:
`COc1ccc2c(c1)c(CC(=O)OCOC(C)=O)c(C)n2C(=O)c1ccc(Cl)cc1`: “latency of nociceptive response” 16.8 ± 1.05 s (hot plate test; BALB/c mice; 100 mg/kg, 120 min).
The blood glucose of `Cc1ccc(-c2oc3ccccc3c(=O)c2OCc2ccccc2)cc1` is reported as 173 ± 4.8 mg/dL (diabetic rat; 5 mg/kg, day 21, p-nitrophenyl β-glucoside induced).
`CC(=O)[O-].O.O.O.O.[Mn+2].[O-]c1ccc(Br)cc1C=NCCN1CCOCC1` gave an inhibition of 52.2% (hydroxyl radical scavenging; 240 µM).
For `CN(C)/C=C1/C(=O)c2sccc2N(C)S1(=O)=O`, “second-order rate constant” read 2.6 M⁻¹ s⁻¹ (100 µM, pH 7.4, 37 °C, 10% acetonitrile, together with: DTNB).
Under “second-order rate constant”, `O=C(NCC1OC2CCC=CCCC2O1)c1ccc([18F])nc1` (stereo not drawn) is recorded as 10600 M⁻¹ s⁻¹ (MeOH/water 50:50; 37 °C, together with: methyltetrazine-NHS 0.05 mM).
For `COc1ccc(C2CC(c3ccc(C)cc3)=Nc3ccccc3S2)cc1OC` (stereo not drawn), the triglycerides was 140 mg/dL (Wistar rat, STZ-induced diabetes, serum; 10 mg/kg, 28 days).
